# Assay results gathered from unrelated publications.
# Protocols differ between the studies behind these lines.
# Target: Alpha-glucosidase MAL12 (MAL12, Saccharomyces cerevisiae S288c, UniProt P53341)
# Chain of UniProt P53341 (whole entry, looked up): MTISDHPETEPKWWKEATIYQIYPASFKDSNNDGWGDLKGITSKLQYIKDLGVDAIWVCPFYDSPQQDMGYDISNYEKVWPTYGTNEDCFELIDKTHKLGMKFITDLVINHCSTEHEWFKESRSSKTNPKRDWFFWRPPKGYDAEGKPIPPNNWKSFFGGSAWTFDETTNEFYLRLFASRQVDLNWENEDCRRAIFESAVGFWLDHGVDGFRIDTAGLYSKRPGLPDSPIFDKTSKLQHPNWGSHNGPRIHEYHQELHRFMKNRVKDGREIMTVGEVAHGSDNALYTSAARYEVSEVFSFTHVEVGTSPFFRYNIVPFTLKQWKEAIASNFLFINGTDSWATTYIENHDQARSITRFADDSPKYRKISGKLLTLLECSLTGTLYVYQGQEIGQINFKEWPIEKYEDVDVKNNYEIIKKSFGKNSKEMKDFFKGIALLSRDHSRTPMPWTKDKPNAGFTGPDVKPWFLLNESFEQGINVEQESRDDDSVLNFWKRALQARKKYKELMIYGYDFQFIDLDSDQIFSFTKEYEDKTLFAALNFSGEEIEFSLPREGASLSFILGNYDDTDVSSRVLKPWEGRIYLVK
# Effect on: enzyme activity
SMILES,mode,method,tested at,pH,notes,inhibition
Cc1cccc(/C=C/C(=O)c2cnn(-c3ccccc3)c2C)c1,inhibitor,,140 µM,,,17.5%
COc1cc(O)c2c(=O)c(OC)c(-c3ccc(O)c(O)c3)oc2c1,inhibitor,absorbance,250 µM,,,86.4%
O=c1c(-c2ccc(O)cc2)coc2c(Cn3cccn3)c(O)ccc12,inhibitor,,25 µM,pH 6.8,,62.5%
O=C1C(=O)N(CCOc2ccccc2)c2ccccc21,inhibitor,,500 µM,pH 6.8,,85%
COc1cc(-c2oc3cc(O)cc(O)c3c(=O)c2OC)ccc1O,inhibitor,absorbance,50 µM,,,94.9%
O=C1C(=O)N(CCOc2ccc(F)cc2)c2ccc(Cl)cc21,inhibitor,,500 µM,pH 6.8,,91.6%
COc1c(-c2cccc(O)c2)oc2c(OC)c(O)cc(O)c2c1=O,,p-nitrophenyl glucoside substrate,10 µM,,series 250 to 10 µM,> 50%
O=C1C(=O)N(CCOc2ccccc2)c2ccc(Br)cc21,inhibitor,,500 µM,pH 6.8,,87.6%
COc1ccc(-c2c(C(F)(F)F)oc3c(Cn4nc(C)cc4C)c(O)ccc3c2=O)cc1,inhibitor,,25 µM,pH 6.8,,66.9%

# Excerpt of the above:
SMILES,mode,method,tested at,pH,notes,inhibition
COc1cc(O)c2c(=O)c(OC)c(-c3ccc(O)c(O)c3)oc2c1,inhibitor,absorbance,250 µM,,,86.4%
